Literature values that unrelated publications cite.
Lines come from different studies, so protocols differ. pKd: −log10 of the molar value. Converted amounts (≈) assume the structure as drawn.

Compound | target or system | test | system | setting | how to read | quantity | result
CCc1c2c(nc3ccc(OC(=O)N4CCC(N5CCCCC5)CC4)cc13)-c1cc3c(c(=O)n1C2)COC(=O)[C@]3(O)CC |  |  | mouse LM2-4-luc tumour model |  |  | tolerability | not toxic
Cc1ncc2n1-c1ccc(Cl)cc1C(c1ccccc1F)=NC2 |  |  |  |  |  | solubility | 1 µg/mL (≈ 3.07 µM)
Cn1c(Cn2ccc(C(F)(F)F)c(Oc3cc(Cl)cc(C#N)c3)c2=O)n[nH]c1=O | HIV-1 | viral replication | Y181C mutant | 50% human serum |  | EC95 | 27 nM
C[C@H](NP(=O)(O)OC[C@H]1O[C@@](C#N)(c2ccc3c(N)ncnn23)[C@H](O)[C@@H]1O)C(=O)O |  |  | plasma |  |  | elimination half-life | 78 min
O=C(NCCc1cccc(Cl)c1)Nc1ccc(Cl)cc1 |  | metabolic stability | rat liver microsomes |  |  | half-life | 0.0103 days
CCC(CC)COC(=O)[C@H](C)N[P@](=O)(OC[C@H]1O[C@@](C#N)(c2ccc3c(N)ncnn23)[C@H](O)[C@@H]1O)Oc1ccccc1 |  |  | human | intravenous infusion, 0.5 h infusion |  | Tmax | 40.2 min
O=S(=O)(O)C(F)(F)C(F)(F)C(F)(F)C(F)(F)C(F)(F)C(F)(F)F |  |  | mouse, female |  |  | half-life | 27 days
NCCc1c[nH]cn1 | Abcam antibody |  |  |  |  | pKd | ~9.00
OCCN1CCN(CCC=C2c3ccccc3Sc3ccc(C(F)(F)F)cc32)CC1 | MCF7 | microarray, measured: ZNHIT2 mRNA |  | concentration not given | reference: DMSO | log2 fold change | 0.96

Some of these lines once more:
Compound | target or system | test | system | setting | how to read | quantity | result
NCCc1c[nH]cn1 | Abcam antibody |  |  |  |  | pKd | ~9.00
